Assay results from different studies.
Lines come from different studies, so protocols differ. Values joined by “and” are separate records of one study, mostly repeats; a detail may differ. Numbers after ± are the reported error.

Structure (SMILES) | cell line | assay | setting | scale | viability
c1ccc(-c2ccc(CNCC3(N4CCCC4)COC3)s2)cc1 | HEK |  | 30 µM, 48 h, 10% FBS | relative to: DMSO | 58.6%
CCc1c(-c2ccccc2)c(-c2ccccc2)nn1-c1ccccc1-c1cccc(OCC(=O)O)c1 | mouse bone marrow macrophages | CCK-8 | 5 µM, 4000 cells | relative to: untreated | 100% and 87.9% and 90.8% and 91.2% and 94.5%
CCc1nc(N)nc(N)c1-c1ccc(Cl)cc1 | uninfected human foreskin fibroblasts | MTT | 25 µM, 48 h |  | 108%
O=C(O)c1cc(SSc2ccc([N+](=O)[O-])c(C(=O)O)c2)ccc1[N+](=O)[O-] | DU-145 | MTT | concentration not given |  | not toxic
CC(=O)Nc1cccc(-n2c(=O)n(C3CC3)c(=O)c3c(Nc4ccc(I)cc4F)n(C)c(=O)c(C)c32)c1 | LoVo (KRAS G13D) | resazurin | 6.25 nM, 72 h, unit not given | relative to: DMSO | 0.744 and 0.654
Fc1ccc2c(CNCC3(N4CCC(F)C4)COC3)c[nH]c2c1 (stereo not shown) | HEK |  | 30 µM, 48 h, 10% FBS | relative to: DMSO | 35.4%
CC(=O)OC[C@H]1O[C@@H]([Se]Cc2ccc3ccccc3n2)[C@H](OC(C)=O)[C@@H](OC(C)=O)[C@@H]1OC(C)=O | THP-1 macrophages (PMA-differentiated) | WST-1 | 50 µM, 24 h |  | 46.6 ± 12.8%
c1ccc(-c2ccc(CNCC3(N4CCCC4)COC3)o2)cc1 | HEK |  | 30 µM, 48 h | relative to: DMSO | 0.35%
O[C@H]1[C@H](OCc2cn(Cc3ccc(F)cc3)nn2)O[C@H]2[C@@H]1OC[C@H]2O | HPAF-II | cytotoxicity, CellTiter-Glo | up to 30 µM, 72 h |  | not toxic
COc1ccc2c(C[Se][C@@H]3O[C@H](CO)[C@H](O)[C@H](O)[C@H]3O)cc(=O)oc2c1 | THP-1 macrophages (PMA-differentiated) | WST-1 | 50 µM, 24 h |  | 126 ± 5.5%
COc1ccc(Cn2cc(CO[C@@H]3O[C@H]4[C@H](OC[C@H]4O)[C@H]3O)nn2)cc1 | HPAF-II | cytotoxicity, CellTiter-Glo | up to 30 µM, 72 h |  | not toxic
FC1CCN(C2(CNCc3ccc(-c4ccccc4)o3)COC2)C1 (stereo not shown) | HEK |  | 30 µM, 48 h, 10% FBS | relative to: DMSO | 54.4%
[Cl-].[Cl-].[Zn+2] | DU-145 | MTT | concentration not given |  | not toxic

Some of these lines once more:
Structure (SMILES) | cell line | assay | setting | scale | viability
c1ccc(-c2ccc(CNCC3(N4CCCC4)COC3)o2)cc1 | HEK |  | 30 µM, 48 h | relative to: DMSO | 0.35%
